# Measurements of several laboratories.
# Parts stem from different laboratories: compare values within a part only.
# Sequence of UniProt P42338 (whole entry, looked up): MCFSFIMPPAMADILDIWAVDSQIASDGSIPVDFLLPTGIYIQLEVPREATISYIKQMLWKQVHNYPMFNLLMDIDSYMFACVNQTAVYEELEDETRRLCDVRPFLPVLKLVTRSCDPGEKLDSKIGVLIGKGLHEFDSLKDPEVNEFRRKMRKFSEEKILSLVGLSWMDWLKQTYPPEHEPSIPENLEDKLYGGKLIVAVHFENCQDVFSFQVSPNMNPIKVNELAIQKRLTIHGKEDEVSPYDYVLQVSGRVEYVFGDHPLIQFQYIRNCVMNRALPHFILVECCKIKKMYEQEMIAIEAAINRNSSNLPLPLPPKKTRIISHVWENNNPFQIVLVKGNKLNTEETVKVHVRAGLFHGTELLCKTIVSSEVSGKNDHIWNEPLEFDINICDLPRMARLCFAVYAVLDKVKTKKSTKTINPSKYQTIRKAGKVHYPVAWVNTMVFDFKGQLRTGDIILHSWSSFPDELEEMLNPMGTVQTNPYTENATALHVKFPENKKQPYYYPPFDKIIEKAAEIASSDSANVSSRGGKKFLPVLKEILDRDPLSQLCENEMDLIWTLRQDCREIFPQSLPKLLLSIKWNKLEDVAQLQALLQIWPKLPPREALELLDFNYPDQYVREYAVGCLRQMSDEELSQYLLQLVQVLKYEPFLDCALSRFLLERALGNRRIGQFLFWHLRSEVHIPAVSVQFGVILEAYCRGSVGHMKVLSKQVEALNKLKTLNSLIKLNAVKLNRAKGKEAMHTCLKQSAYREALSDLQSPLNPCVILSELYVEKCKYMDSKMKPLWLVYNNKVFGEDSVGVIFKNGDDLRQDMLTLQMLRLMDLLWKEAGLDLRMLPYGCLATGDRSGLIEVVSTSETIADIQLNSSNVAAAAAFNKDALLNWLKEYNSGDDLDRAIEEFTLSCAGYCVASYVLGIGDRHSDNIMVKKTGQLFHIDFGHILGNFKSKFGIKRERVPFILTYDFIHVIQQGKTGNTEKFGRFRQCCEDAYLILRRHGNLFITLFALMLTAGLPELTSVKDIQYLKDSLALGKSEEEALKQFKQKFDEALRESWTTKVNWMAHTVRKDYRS
# Sequence of UniProt P31152 (whole entry, looked up): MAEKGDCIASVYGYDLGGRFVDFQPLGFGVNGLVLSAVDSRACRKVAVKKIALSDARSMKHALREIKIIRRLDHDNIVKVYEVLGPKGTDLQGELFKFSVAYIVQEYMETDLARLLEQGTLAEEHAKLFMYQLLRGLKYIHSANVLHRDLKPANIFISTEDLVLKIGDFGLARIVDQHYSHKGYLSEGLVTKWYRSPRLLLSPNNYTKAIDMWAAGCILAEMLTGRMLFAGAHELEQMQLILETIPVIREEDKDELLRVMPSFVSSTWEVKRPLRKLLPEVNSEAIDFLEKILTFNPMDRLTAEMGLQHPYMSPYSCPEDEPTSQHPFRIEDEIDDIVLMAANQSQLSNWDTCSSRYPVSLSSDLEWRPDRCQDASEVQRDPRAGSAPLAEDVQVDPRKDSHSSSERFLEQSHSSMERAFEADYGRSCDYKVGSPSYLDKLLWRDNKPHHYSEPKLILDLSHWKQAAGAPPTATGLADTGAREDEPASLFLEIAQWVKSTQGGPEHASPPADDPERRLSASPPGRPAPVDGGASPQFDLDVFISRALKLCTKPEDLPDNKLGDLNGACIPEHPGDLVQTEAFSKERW
# Sequence of UniProt O43353 (whole entry, looked up): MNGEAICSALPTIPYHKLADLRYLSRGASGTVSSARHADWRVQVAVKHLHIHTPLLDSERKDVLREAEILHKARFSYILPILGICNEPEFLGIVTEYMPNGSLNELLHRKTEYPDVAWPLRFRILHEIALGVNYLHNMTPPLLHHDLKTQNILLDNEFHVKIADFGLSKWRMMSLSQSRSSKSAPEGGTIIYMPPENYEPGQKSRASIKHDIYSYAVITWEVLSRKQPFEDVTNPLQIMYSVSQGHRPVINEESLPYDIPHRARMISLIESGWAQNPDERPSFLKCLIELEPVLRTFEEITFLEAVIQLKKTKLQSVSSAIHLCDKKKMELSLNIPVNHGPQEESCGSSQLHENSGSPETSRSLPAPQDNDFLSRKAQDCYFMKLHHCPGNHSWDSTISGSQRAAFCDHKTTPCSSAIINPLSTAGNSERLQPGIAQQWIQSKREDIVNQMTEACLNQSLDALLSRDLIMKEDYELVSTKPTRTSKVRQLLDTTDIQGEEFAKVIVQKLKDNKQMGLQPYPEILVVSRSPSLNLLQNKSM

# Series 1 — read-out: enzyme activity; action: inhibitor; tested at: 0.5 µM; reference: control
# Target: High affinity nerve growth factor receptor (NTRK1, Homo sapiens, UniProt P04629)
# Sequence of UniProt P04629 (whole entry, looked up): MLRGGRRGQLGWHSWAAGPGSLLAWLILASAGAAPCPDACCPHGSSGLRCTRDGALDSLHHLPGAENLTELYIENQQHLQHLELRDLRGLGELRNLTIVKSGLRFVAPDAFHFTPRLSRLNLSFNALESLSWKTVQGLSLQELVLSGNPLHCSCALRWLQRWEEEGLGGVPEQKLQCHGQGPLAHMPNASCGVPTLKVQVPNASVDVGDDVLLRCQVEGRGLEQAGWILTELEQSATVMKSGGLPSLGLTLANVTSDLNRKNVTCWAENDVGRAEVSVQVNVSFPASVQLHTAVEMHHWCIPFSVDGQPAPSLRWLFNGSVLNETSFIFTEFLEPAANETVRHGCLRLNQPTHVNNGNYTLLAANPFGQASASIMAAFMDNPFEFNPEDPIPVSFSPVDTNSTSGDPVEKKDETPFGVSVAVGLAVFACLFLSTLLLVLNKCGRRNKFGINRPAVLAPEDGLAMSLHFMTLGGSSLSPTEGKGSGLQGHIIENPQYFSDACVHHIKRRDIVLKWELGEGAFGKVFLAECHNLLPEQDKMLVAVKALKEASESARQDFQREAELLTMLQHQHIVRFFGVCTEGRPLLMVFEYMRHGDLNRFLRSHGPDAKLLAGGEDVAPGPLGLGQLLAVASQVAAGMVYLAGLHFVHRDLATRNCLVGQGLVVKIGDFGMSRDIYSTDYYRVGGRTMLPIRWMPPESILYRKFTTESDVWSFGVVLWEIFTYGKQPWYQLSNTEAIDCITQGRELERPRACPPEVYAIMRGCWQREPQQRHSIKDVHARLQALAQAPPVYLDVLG
Structure (SMILES),remaining activity
Cn1c2ccccc2c2c3c(c4c5ccccc5n(CCC#N)c4c21)CNC3=O,1.64%
N#CC(C#N)=C(N)/C(C#N)=C/c1ccc(O)cc1,102%
O=C1NC(=O)C(c2cn(CCCO)c3ncccc23)=C1c1cnccn1,88.1%
Cc1cccc(-c2[nH]c(C(C)(C)C)nc2-c2ccc3c(c2)OCO3)n1,96.5%
C#Cc1cccc(Nc2ncnc3cc(OCCOC)c(OCCOC)cc23)c1,102%
COc1ccc(C(=O)Nc2sc3c(c2C(N)=O)CCCC3)cc1OC,104%
O=C(Nc1cccc(Nc2cc(Nc3cccc(C(F)(F)F)c3)ncn2)c1)C1CC1,99.6%
O=C(O)c1ccc2c3c1cccc3c(=O)n1c3ccccc3nc21,105%
O=C(CCCc1ccc(-c2ccccc2F)cc1)Nc1ccc(O)cc1,103%
COc1cc2ncnc(Nc3ccc(F)c(Cl)c3)c2cc1OCCCN1CCOCC1,103%
CNC(=O)c1cc(Oc2ccc(NC(=O)Nc3ccc(Cl)c(C(F)(F)F)c3)cc2)ccn1,76.1%
O=S(=O)(c1cccc2cnccc12)N1CCCNCC1,89.6%
CC(C)[C@H](CO)Nc1nc(Nc2cc(N)cc(Cl)c2)c2ncn(C(C)C)c2n1,45.4%
CN(C)c1ccc(C=C2C(=O)Nc3ccccc32)cc1,96.6%
O=C1NC(=O)C(c2cn(CCCn3ccnc3)c3ccccc23)=C1Nc1ccccc1,104%

# Series 2 — technique: EMSA with sequencing; form: double-stranded DNA, one strand shown; medium: in vitro; tested at: 10 and 20 nM; reference: negative control set to 0; reading: higher = stronger binding
# Target: Hepatocyte nuclear factor 3-alpha (Foxa1, Mus musculus, UniProt P35582, residues 1-468, full length assumed)
# Notes: whole designed probe, mean of two concentrations, ends assumed
# Target sequence (chain): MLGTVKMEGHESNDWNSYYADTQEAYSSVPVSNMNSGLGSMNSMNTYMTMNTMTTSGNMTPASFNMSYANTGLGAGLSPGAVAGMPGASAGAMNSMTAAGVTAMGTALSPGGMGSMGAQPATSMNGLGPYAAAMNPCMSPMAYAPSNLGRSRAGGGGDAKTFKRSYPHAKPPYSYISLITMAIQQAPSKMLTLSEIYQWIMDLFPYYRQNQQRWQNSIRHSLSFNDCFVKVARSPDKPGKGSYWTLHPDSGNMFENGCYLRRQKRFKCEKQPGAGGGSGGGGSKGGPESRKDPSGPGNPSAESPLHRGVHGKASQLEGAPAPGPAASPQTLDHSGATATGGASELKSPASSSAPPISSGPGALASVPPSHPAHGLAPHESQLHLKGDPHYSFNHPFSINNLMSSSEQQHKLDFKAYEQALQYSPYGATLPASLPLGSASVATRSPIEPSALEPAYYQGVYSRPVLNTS
Oligonucleotide,normalised bound fraction [ratio]
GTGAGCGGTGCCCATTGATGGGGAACAGGTGAATTGGCTGCTTCCATCCTGGCTTGGAACTTCAGACATAGAAGCCTTGGGACTTTCTCAGGCTGACTCATGCACTTTCTCCAGATTCAGCAAACAAGCATCTCTGTGGATCACGTGACCTTAGCCAGGGATGTTGGTGAAACTGTGTGTTGGTCTAGGTACCTAGCCCATGCTAGGTGCTCATCGAATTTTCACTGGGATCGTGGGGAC,0.0534
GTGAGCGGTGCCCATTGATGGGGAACTGAAGTTATAATAGATGTGAGGAGTTTCCTATTGCTGAATATTTACTTTTTCTAGAGGTTAAGAAGAGCTTTTAGAGTCAGAAAGACTTGACTTGTTGACTCTAAAGTCCTGGCTGGTGGTGGGTGCAGTGACTCACGCCCATAATCTCAACACTTTGGGAGGCCGAGGTGGGTGGATCACTTGAGGTCAGGATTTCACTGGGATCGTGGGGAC,0.254
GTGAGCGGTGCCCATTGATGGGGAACAAGAATTAAAATAAACTTGACTAGTATCTCTGCAACCAAACATCAAATCAGTCTTGTTGGTCATTCGATTTAGACAGTATTCTTATGAGGAGCATGTTTACTCTGTATTTTTTTCTTCAGCTCAAGAGATTGTACTTTTGCATTTTTCTTCATAATCATTATCCTATTCATAGAATCAGTAATTAGTGAAATTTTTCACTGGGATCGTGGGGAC,0.219
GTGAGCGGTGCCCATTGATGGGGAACAATCCAGCTACCTATCTTCAGTTCCTTGGCCTTCAGCTGGCAGTGAAACAGACACATCAGCTTTAAGACTGGCAGCCAAATAGTTAACGATCTGTAAACATACATAGAATTACGCAAGGAGTTCCTGTTCAAACAGACTGGATGAAAGCCCTTCCATAAAGAACCCTTTAGGTGATGATGCTAAAATTATTTTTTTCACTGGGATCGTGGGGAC,0.276
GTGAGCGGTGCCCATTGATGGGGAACATCTTCCCCCTCTTCCTTGCCCCACCAGCTCACCTTCCCGGGTTATTTGCAGATAGGAAAATAAATAAAGCCGGCATTCGTTAACCCTCTTCACGCGCATACTGCTGTTTACTTTGGATCTAACATGGTCCTTTGGCGACGCCAGGCTCCGGGAGAGCAAAGCACCGTGTCAGGGCCATGATCCGGGGTGGCCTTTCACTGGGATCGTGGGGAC,0.428
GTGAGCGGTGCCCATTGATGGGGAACGGCCTGCCGCATCTCTACTCAGCCCCATGCTCACTTCCCACACTCCTCAAGCTCATCAGCATCCAGCAGCACACCAGCGAGCTCAGCGCAGTGTGTTTACTCTGGGCCTGGGCCAGCAGCCCCTGCCAGGCATGACTTCAGCACTCATGGCGTGCAGGCGGGGCAGGAGGCAGGGCTGGGATGTGCACTAGGCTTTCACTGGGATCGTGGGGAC,0.266
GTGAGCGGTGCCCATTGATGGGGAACATCTTCCCCCTCTTCCTTGCCCCACCAGCTCACCTTCCCGGGTTATTTGCAGATAGGAAAATAAATAAAGCCGGATGAATCATGCCCTCTTCACGCGCATACTGCCAGAGCAAACAGATCTAACATGGTCCTTTGGCGACGCCAGGCTCCGGGAGAGCAAAGCACCGTGTCAGGGCCATGATCCGGGGTGGCCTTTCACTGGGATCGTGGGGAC,0.4
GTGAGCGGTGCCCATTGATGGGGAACATCTTCCCCCTCTTCCTTGCCCCACCAGCTCACCTTCCCGGGTTATTTGCAGATAGGAAAATAAATAAAGCCGGCATTCGTTAACCCTCTTCTGGCGCAAACTGCCAAAGTAAACAGATGAATCATGGTCCTTTGGCGACGCCAGGCTCCGGGAGAGCAAAGCACCGTGTCAGGGCCATGATCCGGGGTGGCCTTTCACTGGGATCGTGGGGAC,0.487

# Series 3 — technique: protein-binding microarray; form: double-stranded DNA, one strand shown; medium: in vitro; tested at: 940 nM top; notes: 60-bp whole probe; together with: salmon DNA 0.4 mg/ml; reference: random background probes; reading: higher = stronger binding; all sequences stand within: GCCTAGCAC … GTCTTGATTCGCTTGACGCTGCTG
# Target: Interferon regulatory factor 5, full length, phosphomimetic (IRF5, Homo sapiens, UniProt Q13568-2, residues 1-514, S451D/S453D/S456D/S462D)
Oligonucleotide,fitted relative affinity [z-score]
GACTGACTGCTACTGCTGACGTGCTAG,-0.636
GTGTTATTAAAACTTCATGAAGTGCTA,-0.321
GACGGTATCGGTTTCGCGACGTGCTAG,9.13
TTTCCTCTGTCATTTTCTCTGTGCTAG,2.21
TTAGCTTCCCTTTTCCTTTAGTGCTAG,1.25
GACGGCCTGCTACTGCTGACGTGCTAG,-0.632
TTAGGTCTCCGTCTCGGTTAGTGCTAG,1.66
GACGGACTGGGGTATCGGGGCGTGCTA,0.57

# Series 4 — read-out: cell-free assay; technique: competition with immobilised ligand; tested at: 1 µM
# Compound: COc1cccc(CNC(=O)c2nc3scc(COCc4ccc(C(=O)O)cc4)c3c(=O)[nH]2)c1
target,remaining binding
"FLT3 (Homo sapiens, UniProt P36888, R834Q)",77.9%
"PIK3CB (Homo sapiens, UniProt P42338)",54.8%
"MAPK4 (Homo sapiens, UniProt P31152)",80%
"RIPK2 (Homo sapiens, UniProt O43353)",100%

# Repeated from above (series 4):
target,remaining binding
"FLT3 (Homo sapiens, UniProt P36888, R834Q)",77.9%
"MAPK4 (Homo sapiens, UniProt P31152)",80%
"PIK3CB (Homo sapiens, UniProt P42338)",54.8%
"RIPK2 (Homo sapiens, UniProt O43353)",100%
